Published values gathered from unrelated publications.
Each line is one published result; not all experiments were run side by side. pEC50: −log10 of the molar value.
Cell line: HepG2

| SMILES | test | setting | how to read | quantity | result |
| --- | --- | --- | --- | --- | --- |
| NCCC(=O)N[C@@H](Cc1c[nH]cn1)C(=O)N[C@@H](Cc1c[nH]cn1)C(=O)NCCC(=O)O | MTT | 10 µg/mL, 6 h |  | viability | 13.8% |
| Cc1ccc(Nc2ncc3c(n2)N(c2ccccc2)C(=O)N(c2cc(NC(=O)c4cccc(C(F)(F)F)c4)ccc2C)C3)cn1 | cell growth or viability, ATP luminescence | 72 h |  | GI50 | 15900 nM |
| Cc1ccc(NCC(=O)Nc2cnccn2)cc1S(=O)(=O)N1CCOCC1 | cell growth or viability |  |  | pEC50 | 5.30 |
| O=C(CCNC(=O)[C@H](Cc1c[nH]cn1)NC(=O)[C@@H]1CCCN1)NCCC(=O)N[C@@H](Cc1c[nH]cn1)C(=O)O | MTT | 10 µg/mL, 6 h |  | viability | 17% |
| CCOC(=O)c1c(C(C)C)oc2nc(N3CCOCC3)ccc12 | cell growth or viability | 48 h |  | pEC50 | < 4.30 |
| CCC[C@H]1CC[C@H](c2ccc(NC(=S)NC[C@@H]3[C@@H](O)[C@@H](O)[C@H]4[C@H](O)CCCN43)cc2)CC1 | Transwell | concentration not given |  | cell migration | decreased |
| Cc1ccc2nc(-c3ccccc3)c(CN3CCCCC3)n2c1 | cell growth or viability | 48 h |  | pEC50 | < 4.30 |
| Cc1c(C(=O)NNC(=S)Nc2ccc(Cl)cc2)nnn1Cc1nc2ccccc2[nH]1 | PI flow cytometry | concentration not given |  | cells in S phase | 49.1% |
| CC(=O)O[C@H]1CC[C@]2(C)[C@H]3C(=O)C=C4[C@@H]5C[C@@](C)(C(=O)OCc6ccccc6)CC[C@]5(C)CC[C@@]4(C)[C@]3(C)CC[C@H]2C1(C)C | autophagy, flow cytometry | 4 µM, 48 h, unit not given | relative to: untreated | MDC fluorescence intensity | 1760 |
| CCOc1cccc2c1[O][Pt-2]1([Cl])[N+](=C2)CC[NH+]1c1ccccc1 (stereo not drawn) | flow cytometry PI | concentration not given, 24 h |  | cells in G0/G1 phase | 21 to 27% |
| CC(=O)O[C@@H]1CC[C@@]2(C)C(CC[C@]3(C)C2C(=O)C=C2C4[C@@H](C)[C@H](C)CC[C@]4(C)CC[C@]23C)[C@@]1(C)C(=O)N/N=C1/C(=O)Nc2ccccc21 (stereo partly drawn) | TNF-α production, ELISA, item: TNF-α | 10 µM, with: acetaminophen 10 mM | relative to: acetaminophen-treated cells | inhibition | ~54% |
| O=C(/C=C/c1ccc(O)cc1)OCCCC[P+](c1ccccc1)(c1ccccc1)c1ccccc1 | SRB | 24 h | relative to: IC50 L02 over IC50 HepG2 | therapeutic index | 6.93 |
| Cc1cc2nc(-c3cc4ccccc4nc3Cl)[nH]c2cc1C |  | concentration not given, 24 h | relative to: untreated | intracellular Ca2+ | increased |
| O=C(/C=C/c1ccc(O)c(O)c1)OCCCC[P+](c1ccccc1)(c1ccccc1)c1ccccc1 | SRB | 48 h | relative to: IC50 L02 over IC50 HepG2 | therapeutic index | 11.2 |
| CSC(=S)N/N=C(\C)c1ccc(S(=O)(=O)N2CCC(C)CC2)cc1 | flow cytometry | 3.31 µM (IC50), 72 h |  | cells in pre-G1 phase | 11.8% |
| Cc1ccc(N(C)CC(=O)Nc2ccc(F)c(Cl)c2)cc1S(=O)(=O)N1CCOCC1 | cell growth or viability |  |  | pEC50 | < 4.60 |
| Cc1ccc(Nc2ncc3c(n2)N(C)C(=O)N(c2cc(NC(=O)c4ccc(CN5CCC(N(C)C)C5)c(C(F)(F)F)c4)ccc2C)C3)cn1 (stereo not drawn) | cell growth or viability, ATP luminescence | 72 h |  | GI50 | 458 nM |
| CCN(CC)C(=O)c1ccc(-c2cc(NCCCN3CCCCC3)c3ccccc3n2)cc1 |  | 10 µM, overnight, with: 10 nM insulin for 5 min |  | insulin receptor phosphorylation | increased |
| O=C(CNc1ccc(Cl)c(S(=O)(=O)N2CCOCC2)c1)Nc1ccc(F)c(Cl)c1 | cell growth or viability |  |  | pEC50 | 4.59 |
| Cc1ccc(Nc2ncc3c(n2)N(Cc2ccccc2)C(=O)N(c2cc(NC(=O)c4cccc(C(F)(F)F)c4)ccc2C)C3)cn1 | cell growth or viability, ATP luminescence | 72 h |  | GI50 | 1270 nM |

| SMILES | test | setting | how to read | quantity | result |
| --- | --- | --- | --- | --- | --- |
| O=C(CNc1cccc(S(=O)(=O)N2CCOCC2)c1)Nc1ccc(F)c(Cl)c1 | cell growth or viability |  |  | pEC50 | < 4.60 |
| CCOC(=O)c1c(-c2ccc(C)cc2)oc2ncccc12 | cell growth or viability | 48 h |  | pEC50 | < 4.30 |
| NCCC(=O)N[C@@H](Cc1c[nH]cn1)C(=O)N1CCC[C@H]1C(=O)N[C@@H](Cc1c[nH]cn1)C(=O)NCCC(=O)O | LDH | 10 µg/mL, 6 h, 1% FBS |  | viability | 84.4% |
| CC(=NN=c1sc(C(=O)c2ccccc2)nn1-c1ccccc1)c1ccc(S(=O)(=O)N2CCC(C)CC2)cc1 | flow cytometry | 3.31 µM (IC50), 72 h |  | cells in pre-G1 phase | 22.8% |
| C=C1CC(OC(=O)C(C)(O)CCl)C2C(=C)C(=O)OC2C2C1CC(O)C2(O)CCl (stereo not drawn) | annexin V-FITC/PI | concentration not given, 48 h |  | apoptotic cells | 79.7% |
| C=C1C(=O)C23CCC4C(C)(C)CCCC4(C)C2C(O)CC1C3 (single isomer, unassigned) |  | concentration not given |  | GSH/GSSG ratio | decreased |
| [NH2][Pt]1([NH2])([Cl])([O]C(=O)C(Cl)Cl)[O]C(=O)C2(CC(=O)C2)C(=O)[O]1 | annexin V/PI flow cytometry | 50 µM, 24 h |  | apoptotic cells | 28.8% |
| O=C(O)c1cc2cc(O)ccc2n1Cc1ccc(Cl)c(C(F)(F)F)c1 | oxygen consumption rate, Seahorse | 6 h |  | lowest effective concentration | ≥ 500 µM |
| Cc1ccc(NCC(=O)Nc2ccc(F)c(Cl)c2)cc1S(=O)(=O)N1CCCCC1 | cell growth or viability |  |  | pEC50 | 4.62 |
| Cc1ccc2nc(-c3ccccc3)c(CN3CCN(c4ccccc4)CC3)n2c1 | cell growth or viability | 48 h |  | pEC50 | < 4.30 |
| CN(C(=NN=C(c1ccccc1)c1ccccn1)[S][Ga]([Cl])[Cl])C1CCCCC1 | PI flow cytometry | 5 µM, 24 h | relative to: vehicle | G1 phase cells | increased |
| Cc1ccc(NC(C)(C)C(=O)Nc2ccc(F)c(Cl)c2)cc1S(=O)(=O)N1CC2CCC(C1)O2 | cell growth or viability |  |  | pEC50 | < 4.60 |
| O=C1/C(=C/c2ccc3c(c2)OCCO3)SC(=S)N1[C@@H]1O[C@H](CO)[C@@H](O)[C@H](O)[C@H]1O | annexin V/PI | IC50, 48 h |  | early apoptotic cells | 29.1% |
| CC(=O)O[C@@H]1CC[C@@]2(C)C(CC[C@]3(C)C2C(=O)C=C2C4[C@@H](C)[C@H](C)CC[C@]4(C)CC[C@]23C)[C@@]1(C)C(=O)OCC(=O)Oc1cc(C)ccc1C(C)C (stereo partly drawn) | IL-1β production, ELISA, item: IL-1β | 10 µM, with: acetaminophen 10 mM | relative to: acetaminophen-treated cells | inhibition | ~52% |
| C=CCOC(=O)C1C(C=O)=Cc2cc3c(cc2C1c1cc(OC)c(OC)c(OC)c1)OCO3 (stereo not drawn) |  |  | relative to: CC50 HepG2 over amastigote EC50 | selectivity index | > 3.3 |
| Cc1ccc2nc(-c3ccc(Cl)cc3)c(CN3CCN(c4ccc(F)cc4)CC3)n2c1 | cell growth or viability | 48 h |  | pEC50 | < 4.30 |
| Cc1ccc(NC(C)(C)C(=O)Nc2ccc(F)c(Cl)c2)cc1S(=O)(=O)N1CC2CC1CO2 (stereo not drawn) | cell growth or viability |  |  | pEC50 | < 4.60 |
| CCOC(=O)c1c(C)oc2nc(N3CCN(c4ccccc4)CC3)ccc12 | cell growth or viability | 48 h |  | pEC50 | < 4.30 |
| CSC(=NN=C(C)c1ccc(S(=O)(=O)N2CCC(C)CC2)cc1)N(C)C | flow cytometry | 3.31 µM, 72 h |  | cells in %G2/M | 31.3% |

Some of these lines once more:
| SMILES | test | setting | how to read | quantity | result |
| --- | --- | --- | --- | --- | --- |
| Cc1ccc(Nc2ncc3c(n2)N(C)C(=O)N(c2cc(NC(=O)c4ccc(CN5CCC(N(C)C)C5)c(C(F)(F)F)c4)ccc2C)C3)cn1 (stereo not drawn) | cell growth or viability, ATP luminescence | 72 h |  | GI50 | 458 nM |
| Cc1ccc(NC(C)(C)C(=O)Nc2ccc(F)c(Cl)c2)cc1S(=O)(=O)N1CC2CC1CO2 (stereo not drawn) | cell growth or viability |  |  | pEC50 | < 4.60 |
| CCN(CC)C(=O)c1ccc(-c2cc(NCCCN3CCCCC3)c3ccccc3n2)cc1 |  | 10 µM, overnight, with: 10 nM insulin for 5 min |  | insulin receptor phosphorylation | increased |
| CSC(=NN=C(C)c1ccc(S(=O)(=O)N2CCC(C)CC2)cc1)N(C)C | flow cytometry | 3.31 µM, 72 h |  | cells in %G2/M | 31.3% |
| C=C1CC(OC(=O)C(C)(O)CCl)C2C(=C)C(=O)OC2C2C1CC(O)C2(O)CCl (stereo not drawn) | annexin V-FITC/PI | concentration not given, 48 h |  | apoptotic cells | 79.7% |
| O=C(CNc1cccc(S(=O)(=O)N2CCOCC2)c1)Nc1ccc(F)c(Cl)c1 | cell growth or viability |  |  | pEC50 | < 4.60 |
